Measurements collected from several papers.
Parts stem from different laboratories: compare values within a part only. Several values in a cell are separate wells, animals, samples, runs or records.
Chain of UniProt P29323 (whole entry, looked up): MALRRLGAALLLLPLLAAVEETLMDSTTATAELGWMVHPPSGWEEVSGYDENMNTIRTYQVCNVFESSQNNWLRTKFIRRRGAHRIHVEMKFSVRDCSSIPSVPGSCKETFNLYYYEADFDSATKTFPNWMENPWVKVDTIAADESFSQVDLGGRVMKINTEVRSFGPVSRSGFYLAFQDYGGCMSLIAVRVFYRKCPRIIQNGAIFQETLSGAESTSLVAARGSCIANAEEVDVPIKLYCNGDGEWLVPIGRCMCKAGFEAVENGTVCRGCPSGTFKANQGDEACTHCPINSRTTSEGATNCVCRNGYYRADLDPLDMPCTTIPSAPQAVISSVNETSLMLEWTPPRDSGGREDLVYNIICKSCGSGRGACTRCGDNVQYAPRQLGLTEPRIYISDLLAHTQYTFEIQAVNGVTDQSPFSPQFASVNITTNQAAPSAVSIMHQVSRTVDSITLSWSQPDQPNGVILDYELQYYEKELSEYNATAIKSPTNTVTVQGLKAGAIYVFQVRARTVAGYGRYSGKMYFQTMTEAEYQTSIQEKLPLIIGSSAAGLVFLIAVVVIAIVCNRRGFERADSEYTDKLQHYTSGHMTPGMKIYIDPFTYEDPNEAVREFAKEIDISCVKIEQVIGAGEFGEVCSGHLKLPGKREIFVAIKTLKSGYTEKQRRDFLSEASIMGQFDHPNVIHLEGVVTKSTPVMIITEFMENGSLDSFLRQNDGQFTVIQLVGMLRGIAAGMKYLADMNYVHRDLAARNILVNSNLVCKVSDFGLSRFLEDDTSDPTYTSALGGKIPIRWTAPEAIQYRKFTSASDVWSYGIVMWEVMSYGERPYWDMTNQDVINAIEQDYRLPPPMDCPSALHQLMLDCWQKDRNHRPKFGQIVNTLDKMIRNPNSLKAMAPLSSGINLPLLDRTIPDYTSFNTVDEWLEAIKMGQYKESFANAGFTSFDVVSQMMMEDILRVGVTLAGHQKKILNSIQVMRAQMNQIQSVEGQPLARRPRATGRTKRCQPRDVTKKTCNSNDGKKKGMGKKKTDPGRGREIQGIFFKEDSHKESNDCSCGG
Chain of UniProt Q9UQB9 (whole entry, looked up): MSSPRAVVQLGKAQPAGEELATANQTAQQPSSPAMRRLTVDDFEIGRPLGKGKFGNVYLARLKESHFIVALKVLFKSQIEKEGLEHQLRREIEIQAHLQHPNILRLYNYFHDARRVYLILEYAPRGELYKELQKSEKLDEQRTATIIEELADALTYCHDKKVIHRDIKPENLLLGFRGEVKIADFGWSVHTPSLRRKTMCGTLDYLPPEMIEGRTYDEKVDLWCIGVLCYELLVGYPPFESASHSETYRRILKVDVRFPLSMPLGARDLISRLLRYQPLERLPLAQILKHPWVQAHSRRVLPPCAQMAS
Chain of UniProt P41595 (whole entry, looked up): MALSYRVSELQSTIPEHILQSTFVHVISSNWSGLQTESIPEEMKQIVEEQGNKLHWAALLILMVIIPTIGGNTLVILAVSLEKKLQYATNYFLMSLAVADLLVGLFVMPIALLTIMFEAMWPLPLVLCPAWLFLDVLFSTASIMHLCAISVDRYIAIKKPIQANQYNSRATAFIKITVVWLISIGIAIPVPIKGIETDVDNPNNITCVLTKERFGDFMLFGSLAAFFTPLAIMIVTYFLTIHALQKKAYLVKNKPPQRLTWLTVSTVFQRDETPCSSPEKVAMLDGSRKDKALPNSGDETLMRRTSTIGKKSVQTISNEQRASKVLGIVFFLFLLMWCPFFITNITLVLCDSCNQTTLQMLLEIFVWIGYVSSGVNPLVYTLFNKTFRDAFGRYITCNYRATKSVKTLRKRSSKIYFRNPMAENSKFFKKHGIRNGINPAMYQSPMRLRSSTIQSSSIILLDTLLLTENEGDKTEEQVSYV
Chain of UniProt P23443 (whole entry, looked up): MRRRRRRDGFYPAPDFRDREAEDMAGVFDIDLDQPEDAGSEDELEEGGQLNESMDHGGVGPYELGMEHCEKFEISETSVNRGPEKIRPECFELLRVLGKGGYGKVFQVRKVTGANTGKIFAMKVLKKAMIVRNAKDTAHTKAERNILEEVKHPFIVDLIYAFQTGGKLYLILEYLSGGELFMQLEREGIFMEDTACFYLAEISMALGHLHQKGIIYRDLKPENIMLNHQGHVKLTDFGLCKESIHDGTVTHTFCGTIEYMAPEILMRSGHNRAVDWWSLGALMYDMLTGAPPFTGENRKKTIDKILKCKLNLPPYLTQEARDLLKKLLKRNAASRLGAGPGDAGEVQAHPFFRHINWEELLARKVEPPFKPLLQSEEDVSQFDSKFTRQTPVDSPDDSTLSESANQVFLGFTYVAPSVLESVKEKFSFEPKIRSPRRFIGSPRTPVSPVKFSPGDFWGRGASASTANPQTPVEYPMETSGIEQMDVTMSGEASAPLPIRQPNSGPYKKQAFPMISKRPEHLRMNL

Set 1 — cell line: HEK293T; observed: protein-protein interaction; technique: NanoBiT; time: 4 h; setting: LgBiT-linker-SmBiT control pair; reading: higher = more interaction
SMILES: CC(C)(C(=O)O)[C@H](NC(=O)Cc1cccc(I)c1)c1ccc2oc(=O)[nH]c2c1
concentration	luminescence signal
1.11 nM	110 a.u. and 120 a.u. and 106 a.u.
0.12 nM	100 a.u. and 114 a.u. and 111 a.u.
3.33 nM	111 a.u. and 117 a.u. and 127 a.u.
0.37 nM	103 a.u. and 111 a.u. and 118 a.u.

Set 2 — Structure (SMILES): CC(C)(O)c1cncc(-c2nc3ccc(F)cc3n2C2CC2)c1; observed: binding; technique: radioligand binding; concentration: 10 µM
target	inhibition [%]
HTR5A (Homo sapiens, UniProt P47898)	-9.57
HTR2B (Homo sapiens, UniProt P41595)	63.1
HTR3A (Homo sapiens, UniProt P46098)	-6.88

Set 3 — observed: enzyme activity; mode: inhibitor; concentration: 0.5 µM; reference: control
SMILES: CN1CCN(c2ccc3nc(-c4c(N)c5c(F)cccc5[nH]c4=O)[nH]c3c2)CC1
target	remaining activity
GRK2 (Homo sapiens, UniProt P25098)	98.1%
RPS6KB1 (Homo sapiens, UniProt P23443)	77.3%
NUAK1 (Homo sapiens, UniProt O60285)	3.13%
EPHA7 (Homo sapiens, UniProt Q15375)	76.5%
Aurora kinase C (AURKC, Homo sapiens, UniProt Q9UQB9)	82.3%
PRKCG (Homo sapiens, UniProt P05129)	86.9%
SRPK3 (Homo sapiens, UniProt Q9UPE1)	104%
SGK1 (Homo sapiens, UniProt O00141)	88.2%
CSK (Homo sapiens, UniProt P41240)	88.4%
MYLK (Homo sapiens, UniProt Q15746)	76.6%
RPS6KA1 (Homo sapiens, UniProt Q15418)	22.2%
GRK6 (Homo sapiens, UniProt P43250)	103%
BMX (Homo sapiens, UniProt P51813)	70.1%
EPHB2 (Homo sapiens, UniProt P29323)	86.1%
GSK3A (Homo sapiens, UniProt P49840)	100%
PAK2 (Homo sapiens, UniProt Q13177)	96.9%
PRKCE (Homo sapiens, UniProt Q02156)	101%

Set 4 — mode: inhibitor; concentration: concentration not given; together with: with ssDNA
Target: DNA polymerase theta, helicase domain (POLQ, Homo sapiens, UniProt O75417)
Chain of UniProt O75417 (whole entry, looked up): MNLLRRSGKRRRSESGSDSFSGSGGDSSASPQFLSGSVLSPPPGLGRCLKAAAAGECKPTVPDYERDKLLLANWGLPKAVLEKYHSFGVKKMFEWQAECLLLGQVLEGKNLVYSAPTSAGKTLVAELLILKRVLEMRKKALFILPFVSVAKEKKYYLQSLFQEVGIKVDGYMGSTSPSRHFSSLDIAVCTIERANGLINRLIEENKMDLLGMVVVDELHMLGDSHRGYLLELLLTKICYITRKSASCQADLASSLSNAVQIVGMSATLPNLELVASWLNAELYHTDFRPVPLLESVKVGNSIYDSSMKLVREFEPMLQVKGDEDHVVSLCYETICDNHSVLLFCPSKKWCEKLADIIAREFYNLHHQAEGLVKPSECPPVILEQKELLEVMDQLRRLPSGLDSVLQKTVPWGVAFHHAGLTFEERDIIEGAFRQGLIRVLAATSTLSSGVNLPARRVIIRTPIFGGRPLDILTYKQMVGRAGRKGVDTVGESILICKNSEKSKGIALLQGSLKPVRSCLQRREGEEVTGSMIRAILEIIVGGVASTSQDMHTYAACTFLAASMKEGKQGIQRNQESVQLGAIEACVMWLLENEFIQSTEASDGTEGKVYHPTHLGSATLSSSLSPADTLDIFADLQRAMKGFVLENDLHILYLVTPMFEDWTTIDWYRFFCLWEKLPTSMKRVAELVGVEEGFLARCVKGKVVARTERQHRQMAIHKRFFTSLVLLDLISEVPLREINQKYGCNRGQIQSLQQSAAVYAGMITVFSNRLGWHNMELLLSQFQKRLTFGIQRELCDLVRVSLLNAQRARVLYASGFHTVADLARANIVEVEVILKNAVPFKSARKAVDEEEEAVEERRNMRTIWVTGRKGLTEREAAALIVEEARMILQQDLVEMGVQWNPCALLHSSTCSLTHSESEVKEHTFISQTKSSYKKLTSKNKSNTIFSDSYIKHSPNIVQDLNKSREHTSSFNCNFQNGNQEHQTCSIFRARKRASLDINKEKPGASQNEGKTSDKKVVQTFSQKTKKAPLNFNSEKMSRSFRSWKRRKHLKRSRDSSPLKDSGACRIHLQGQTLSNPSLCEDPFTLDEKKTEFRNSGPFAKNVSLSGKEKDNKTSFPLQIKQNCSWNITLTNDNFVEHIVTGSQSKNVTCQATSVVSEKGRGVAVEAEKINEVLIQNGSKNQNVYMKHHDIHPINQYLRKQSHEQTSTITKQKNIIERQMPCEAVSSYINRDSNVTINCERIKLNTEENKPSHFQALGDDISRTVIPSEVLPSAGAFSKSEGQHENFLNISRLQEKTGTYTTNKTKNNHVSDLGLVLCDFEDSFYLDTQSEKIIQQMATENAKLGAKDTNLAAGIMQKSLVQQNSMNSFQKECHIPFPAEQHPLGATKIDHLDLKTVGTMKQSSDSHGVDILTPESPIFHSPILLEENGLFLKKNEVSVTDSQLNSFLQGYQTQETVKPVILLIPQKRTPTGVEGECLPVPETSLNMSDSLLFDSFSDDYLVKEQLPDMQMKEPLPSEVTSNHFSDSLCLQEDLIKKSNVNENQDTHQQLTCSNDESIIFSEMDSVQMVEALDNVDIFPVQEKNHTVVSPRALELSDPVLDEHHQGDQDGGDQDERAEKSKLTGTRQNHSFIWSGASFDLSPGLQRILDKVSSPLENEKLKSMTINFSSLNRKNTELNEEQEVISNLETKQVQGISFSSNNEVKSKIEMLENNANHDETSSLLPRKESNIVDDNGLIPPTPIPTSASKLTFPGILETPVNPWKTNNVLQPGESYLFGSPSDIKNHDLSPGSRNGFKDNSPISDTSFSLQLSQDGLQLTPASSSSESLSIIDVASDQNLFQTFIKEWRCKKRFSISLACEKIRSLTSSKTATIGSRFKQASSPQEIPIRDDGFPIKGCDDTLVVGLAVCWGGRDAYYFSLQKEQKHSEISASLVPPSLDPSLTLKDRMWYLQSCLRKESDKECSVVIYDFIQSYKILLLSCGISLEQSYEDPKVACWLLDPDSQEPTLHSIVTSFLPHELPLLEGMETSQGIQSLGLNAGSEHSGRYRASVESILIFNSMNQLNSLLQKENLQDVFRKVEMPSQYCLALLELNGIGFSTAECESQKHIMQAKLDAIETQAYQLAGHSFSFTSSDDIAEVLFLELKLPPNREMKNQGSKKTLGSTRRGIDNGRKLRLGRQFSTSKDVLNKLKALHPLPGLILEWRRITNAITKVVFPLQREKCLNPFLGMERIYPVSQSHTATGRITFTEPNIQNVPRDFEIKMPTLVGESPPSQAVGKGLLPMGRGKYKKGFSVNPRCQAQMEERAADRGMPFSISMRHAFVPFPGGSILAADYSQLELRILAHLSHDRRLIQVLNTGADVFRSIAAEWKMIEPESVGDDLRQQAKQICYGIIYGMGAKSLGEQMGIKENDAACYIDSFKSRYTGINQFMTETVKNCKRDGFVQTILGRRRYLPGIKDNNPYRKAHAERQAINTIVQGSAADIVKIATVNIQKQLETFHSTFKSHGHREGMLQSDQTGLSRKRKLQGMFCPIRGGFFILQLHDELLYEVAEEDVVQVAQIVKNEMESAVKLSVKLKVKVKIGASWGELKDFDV
Compound	remaining activity
COc1cccc(C2C3=C(NN/C3=C3/C=CC=CC3=O)C(=O)N2CCc2ccc(OC)c(OC)c2)c1 (stereo not shown)	58.1% and 59.6%
CSc1ccc(/C=C/c2nc3ccccc3n2S(=O)(=O)c2ccc(Br)cc2)cc1	52.1% and 54.6%
N#Cc1c(O)c2c(-c3ccc(-c4ccccc4O)cc3)csc2[nH]c1=O	51% and 50.5%
O=C(O)[C@]1(Cc2cccc(Nc3nccs3)n2)CC[C@@H](Oc2cccc(Cl)c2F)CC1	55.8% and 55.5%
CC(=O)Oc1cccc2c1C(=O)c1c(OC(C)=O)cc(C(=O)O)cc1C2=O	55.6% and 59.1%
O=C(Nc1cc(-c2ccccc2)sc1C(=O)O)c1cccc(F)c1	59.7% and 61.6%
Cc1nc(N=Nc2cc(S(=O)(=O)O)c3cc([N+](=O)[O-])cc(S(=O)(=O)O)c3c2)c(COP(=O)(O)O)c(C=O)c1O	45.9% and 47.3%
O=C(Nc1cc2cc[nH]c2cn1)c1ccccc1	55% and 55.6%
O=C(O)c1cccnc1Nc1cccc(C(F)(F)F)c1	60.8% and 64.4%

Set 5 — host: human; medium: microsomes or S9; concentration: 2 µM; time: 0.5 h
Structure (SMILES)	remaining compound [%]
Clc1ccc(C2=Nc3c(nnn3Cc3ccccc3)C3=NCCN23)cc1	> 100
Cc1ccc2c(c1)N(C(=O)c1cccc(F)c1)CC(C)O2 (stereo not shown)	15.2
CC1(C)Cc2c(sc3c2c(=O)n(C2CCCCC2)c(=O)n3CC(=O)NCc2ccccc2)CO1	51.8
COc1c(C)cnc(CN2CCC(NC(=O)OC(C)(C)C)CC2)c1C	92.1
O=C(NC1CCCCCC1)N1CCOC2(CCOCC2)C1	87
CC1(C)CC(=O)c2c(O)cc(OCC(=O)N3CCN(C(=O)C4COc5ccccc5O4)CC3)cc2O1 (stereo not shown)	19.7
COC(=O)[C@@H]1CCCN1C(=O)c1ccc(OC(c2ccc(Cl)cc2)c2ccc(Cl)cc2Cl)c(F)c1F (stereo partly shown)	66.5
CC(C)n1[nH]c(=O)c2c(-c3ccc[nH]c3=O)c3c(nc21)[nH]c(=O)n3C	25.3
Cn1cc(C2c3ccccc3C(=O)N2C2CCCCC2)c2ccccc21 (stereo not shown)	33.3
CC1C(S(C)(=O)=O)=NNc2c(-c3ccccc3)cnn21 (stereo not shown)	92.8
Cc1cc(C(=O)NCCS(=O)(=O)N(C)C)cnc1C	96.8
COc1cc(=O)n2c(c1C(=O)Nc1ccc(Cl)c(C)c1)CCCC2	48.5
COc1ccc(C)cc1N(C)C(=O)c1cc2ccc3cccnc3c2[nH]1	0.306

Some of these lines once more (set 4):
Compound	remaining activity
Cc1nc(N=Nc2cc(S(=O)(=O)O)c3cc([N+](=O)[O-])cc(S(=O)(=O)O)c3c2)c(COP(=O)(O)O)c(C=O)c1O	45.9% and 47.3%
N#Cc1c(O)c2c(-c3ccc(-c4ccccc4O)cc3)csc2[nH]c1=O	51% and 50.5%
O=C(Nc1cc2cc[nH]c2cn1)c1ccccc1	55% and 55.6%
CC(=O)Oc1cccc2c1C(=O)c1c(OC(C)=O)cc(C(=O)O)cc1C2=O	55.6% and 59.1%
CSc1ccc(/C=C/c2nc3ccccc3n2S(=O)(=O)c2ccc(Br)cc2)cc1	52.1% and 54.6%
